Measured values of several laboratories.
Protocols differ between the studies behind these lines. Numbers after ± are the reported error.

CCCC[C@H]1C(=O)N(C)[C@@H](CCCC)C(=O)N[C@@H](CCCNC(=O)CN2CCN(CC(=O)O)CCN(CC(=O)O)CCN(CC(=O)O)CC2)C(=O)N[C@H](C(=O)NCC(N)=O)CSCC(=O)N[C@@H](Cc2ccc(O)cc2)C(=O)N(C)[C@@H](C)C(=O)N[C@@H](CC(N)=O)C(=O)N2CCC[C@H]2C(=O)N[C@@H](Cc2c[nH]cn2)C(=O)N[C@@H](CC(C)C)C(=O)N(C)CC(=O)N[C@@H](Cc2c[nH]c3ccccc23)C(=O)N[C@@H](CO)C(=O)N[C@@H](Cc2c[nH]c3ccccc23)C(=O)N1C [gallium-68 labelled]
tissue uptake (NOD/SCID mice, CHO-hPD-L1 xenograft, skin; 60 min, together with: blocking agent 50 µg co-injected): 12 ± 2.53 %ID/g

CC(C)C[C@@H](NC(=O)[C@@H](CCCNC(=N)N)NC(=O)[C@@H](Cc1c[nH]cn1)NC(=O)[C@@H](Cc1c[nH]c2ccccc12)NC(=O)[C@@H](Cc1c[nH]cn1)NC(=O)[C@@H](Cc1ccccc1)NC(=O)[C@H](NC(=O)[C@@H](Cc1ccc(O)cc1)NC(=O)CNC(=O)CNC(=O)CCOCCOCCOCCNC(=O)CN1CCN(CC(=O)O)CCN(CC(=O)O)CC1)[C@H](C)O)C(=O)N[C@H](CC(N)=O)C(=O)N1CCC[C@@H]1C(=O)O [gallium-68 labelled]
tissue uptake (gamma counting; C57BL/6 mice, male, bone; intravenous, 1.85 MBq, 120 min): 0.67 ± 0.21 %ID/g

CC[C@H](C)[C@H](NC(=O)[C@H](CCCNC(=N)N)NC(=O)[C@H](CCCCN)NC(=O)[C@H](Cc1ccc(O)cc1)NC(=O)[C@H](CC(=O)O)NC(=O)[C@H](C)NC(=O)CNC(=O)CCOCCOCCOCCNC(=O)CN1CCN(CC(=O)O)CCN(CC(=O)O)CCN(CC(=O)O)CC1)C(=O)N[C@H](C(=O)N[C@@H](CC(C)C)C(=O)N[C@@H](CCCCN)C(=O)N[C@H](C(=O)N[C@@H](CC(N)=O)C(N)=O)C(C)C)[C@@H](C)O [copper-64 labelled]
tissue uptake (ex vivo gamma counting; C57BL/6J male mice, B16-F10 tumour, pancreas; intravenous, 1.85 MBq, 5 min): 1.32 ± 0.122 %ID/g

CSCC[C@H](NC(=O)CNC(=O)[C@H](CCCCN)NC(=O)[C@H](CC(C)C)NC(=O)[C@@H]1CCCN1C(=O)[C@H](CO)NC(=O)[C@H](Cc1c[nH]cn1)NC(=O)[C@H](Cc1c[nH]c2ccccc12)NC(=O)[C@H](CCCNC(=N)N)NC(=O)[C@H](CC(C)C)NC(=O)[C@H](CCCNC(=N)N)NC(=O)[C@H](Cc1c[nH]c2ccccc12)NC(=O)[C@H](CS)NC(=O)CCCCCNC(=O)CN1CCN(CC(=O)O)CCN(CC(=O)O)CCN(CC(=O)O)CC1)C(=O)O [copper-64 labelled]
tissue uptake (male C57BL/6J mice, B16-F10 tumour, small intestine; intravenous, 1.85 MBq, 0.5 h): 13 %ID/g

CC[C@H](C)[C@H](NC(=O)[C@@H](Cc1c[nH]c2ccccc12)NC(=O)[C@@H]1CCCN1C(=O)[C@H](CCCCN)NC(=O)[C@H](CCCCN)NC(=O)CCNC(=O)CCNC(=O)CN1CCN(CC(=O)O)CCN(CC(=O)O)CCN(CC(=O)O)CC1)C(=O)N[C@@H](C[Si](C)(C)C)C(=O)O [gallium-68 labelled]
tissue uptake (ex vivo biodistribution; nude mice, HT-29 xenograft, blood; 90 min, together with: levocabastine 0.5 µmol): 0.2 ± 0.07 %ID/g

C[C@H](O)[C@@H](NC(=O)[C@H]1CCCN1C(=O)[C@@H](CCCCN)NC(=O)[C@@H](CO)NC(=O)[C@@H](Cc1ccc(O)cc1)NC(=O)[C@@H](CC(N)=O)NC(=O)CCOCCOCCOCCNC(=O)CN1CCN(CC(=O)O)CCN(CC(=O)O)CCN(CC(=O)O)CC1)C(=O)N[C@H](CC(=O)O)C(=O)N[C@H](CCCNC(=N)N)C(=O)N[C@H](CCC(N)=O)C(=O)N[C@H](Cc1ccc(O)cc1)C(=O)N[C@H](Cc1c[nH]cn1)C(=O)N[C@H](Cc1ccccc1)C(N)=O [copper-64 labelled]
tissue uptake (C57BL/6J mice, thymus; intravenous, 1.85 MBq, 0.6667 h, radiolabelled): 0.78 ± 0.47 %ID/g

CC[C@H](C)[C@H](NC(=O)[C@H](CCCCN)NC(=O)CNC(=O)[C@H](CC(C)C)NC(=O)[C@H](Cc1ccccc1)NC(=O)[C@H](CCCCN)NC(=O)[C@H](CO)NC(=O)[C@H](Cc1ccccc1)NC(=O)[C@H](Cc1c[nH]c2ccccc12)NC(=O)[C@H](CCC(N)=O)NC(=O)[C@@H](NC(=O)[C@H](Cc1ccccc1)NC(=O)CCCCCNC(=O)CN1CCN(CC(=O)O)CCN(CC(=O)O)CCN(CC(=O)O)CC1)C(C)C)C(=O)N[C@@H](CCC(=O)O)C(=O)N1CCC[C@H]1C(=O)N[C@@H](CC(=O)O)C(=O)N[C@H](C(=O)N[C@@H](CO)C(=O)N[C@@H](CCC(N)=O)C(=O)N[C@H](C(=O)N[C@@H](CCC(N)=O)C(=O)N[C@@H](CC(=O)O)C(=O)N1CCC[C@H]1C(=O)N[C@@H](CC(N)=O)C(=O)N[C@@H](CC(=O)O)C(=O)N[C@@H](CCC(N)=O)C(=O)N[C@@H](Cc1ccc(O)cc1)C(=O)N[C@@H](CCC(=O)O)C(=O)N1CCC[C@H]1C(=O)N[C@@H](Cc1ccccc1)C(=O)O)C(C)C)C(C)C [copper-64 labelled]
tissue uptake (C57BL/6 mice, muscle; vehicle, intratracheal instillation): 0.39 ± 0.1 %ID/g

CC[C@H](C)[C@H](NC(=O)[C@H](CCCNC(=N)N)NC(=O)[C@H](CCCCN)NC(=O)[C@H](Cc1ccc(O)cc1)NC(=O)[C@H](CC(=O)O)NC(=O)[C@H](C)NC(=O)CNC(=O)CCOCCOCCOCCNC(=O)CN1CCN(CC(=O)O)CCN(CC(=O)O)CCN(CC(=O)O)CC1)C(=O)N[C@H](C(=O)N[C@H](C(=O)N[C@@H](CCCCN)C(=O)N[C@H](C(=O)N[C@@H](CC(N)=O)C(N)=O)C(C)C)C(C)C)[C@@H](C)O [copper-64 labelled]
tissue uptake (ex vivo gamma counting; C57BL/6J male mice, B16-F10 tumour, spleen; intravenous, 1.85 MBq, 20 min): 0.718 ± 0.02 %ID/g

For quick reference, copied from above:
CC(C)C[C@@H](NC(=O)[C@@H](CCCNC(=N)N)NC(=O)[C@@H](Cc1c[nH]cn1)NC(=O)[C@@H](Cc1c[nH]c2ccccc12)NC(=O)[C@@H](Cc1c[nH]cn1)NC(=O)[C@@H](Cc1ccccc1)NC(=O)[C@H](NC(=O)[C@@H](Cc1ccc(O)cc1)NC(=O)CNC(=O)CNC(=O)CCOCCOCCOCCNC(=O)CN1CCN(CC(=O)O)CCN(CC(=O)O)CC1)[C@H](C)O)C(=O)N[C@H](CC(N)=O)C(=O)N1CCC[C@@H]1C(=O)O [gallium-68 labelled]
tissue uptake (gamma counting; C57BL/6 mice, male, bone; intravenous, 1.85 MBq, 120 min): 0.67 ± 0.21 %ID/g
